Literature values that unrelated publications cite.
Each line is one published result; not all experiments were run side by side. In brackets after ≈: the same amount, converted by molar mass.
UniProt Q08638, sequence (whole entry, looked up): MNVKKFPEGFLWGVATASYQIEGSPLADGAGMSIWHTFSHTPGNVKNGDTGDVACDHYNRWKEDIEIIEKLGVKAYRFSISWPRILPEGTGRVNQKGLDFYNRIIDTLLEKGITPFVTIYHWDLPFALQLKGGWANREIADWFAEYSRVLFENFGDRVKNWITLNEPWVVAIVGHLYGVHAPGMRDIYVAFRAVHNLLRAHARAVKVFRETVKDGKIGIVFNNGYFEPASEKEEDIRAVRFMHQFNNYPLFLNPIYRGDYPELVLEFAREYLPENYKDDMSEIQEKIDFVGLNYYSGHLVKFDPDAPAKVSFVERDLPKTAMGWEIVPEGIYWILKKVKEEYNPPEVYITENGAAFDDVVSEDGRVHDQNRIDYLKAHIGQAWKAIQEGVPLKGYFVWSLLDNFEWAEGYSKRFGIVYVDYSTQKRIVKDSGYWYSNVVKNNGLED

Compound	tested on	test	system	setting	how to read	endpoint	value
O=[N+]([O-])c1ccc(O[C@@H]2O[C@H](CO)[C@@H](O)[C@H](O)[C@H]2O)c([N+](=O)[O-])c1	bglA (Thermotoga maritima, UniProt Q08638)	substrate	–	–	–	Km	300 µM
CN1CCC[C@H]1c1cccnc1	–	–	–	–	–	elimination rate constant	0.706 h⁻¹
COc1ccc(C[C@H]2NC[C@H](O)[C@H]2OC(C)=O)cc1	Naegleria	–	–	–	–	IC50	4.7 µM
OCCN1CCN(CCC=C2c3ccccc3Sc3ccc(C(F)(F)F)cc32)CC1	MCF7	microarray, Connectivity Map, measured: INSIG1 mRNA	–	concentration not given, 6 h	relative to: DMSO	fold change	2.07
CN(C)c1ccc2c(-c3ccc(C(=O)O)cc3C(=O)[O-])c3ccc(N(C)C)cc3[o+]c2c1	–	measured: carboxyl groups	–	–	–	pKa	< 5
C#C[C@]1(O)CC[C@H]2[C@@H]3CCc4cc(O)ccc4[C@H]3CC[C@@]21C	–	–	human, plasma	concentration not given, range of reported values	–	Cmax	< 313 nM
CSCC[C@@H]1NC(=O)[C@@H]2CCCN2C(=O)[C@H](CCCNC(=N)N)NC(=O)[C@H](CCCCN)NC(=O)[C@H](CCC(=O)O)NC(=O)[C@H](Cc2ccc(O)cc2)NC(=O)[C@H](CO)NC(=O)[C@@H](N)CSSC[C@@H](C(=O)O)NC1=O	FtsZ	GTPase activity, inhibitor	–	–	–	IC50	450 µM
C[C@]12CCC(=O)C=C1CC[C@@H]1[C@@H]2[C@@H](O)C[C@@]2(C)[C@H]1CC[C@]2(O)C(=O)CO	–	–	human, plasma	concentration not given, median of reported values	–	Cmax	384 nM
Cc1ncc([N+](=O)[O-])n1CCO	Trichomonas gallinae	trypan blue	–	–	–	LC50	0.31 µg/mL (≈ 1.81 µM)
